# Measurements gathered from unrelated publications.
# Parts stem from different laboratories: compare values within a part only. Changes are numbered by the printed parent chain.

# Sample 1
# Target: Ras GTPase-activating protein-binding protein 1, full length (G3BP1, Homo sapiens, UniProt Q13283)
# Sequence of UniProt Q13283 (whole entry, looked up): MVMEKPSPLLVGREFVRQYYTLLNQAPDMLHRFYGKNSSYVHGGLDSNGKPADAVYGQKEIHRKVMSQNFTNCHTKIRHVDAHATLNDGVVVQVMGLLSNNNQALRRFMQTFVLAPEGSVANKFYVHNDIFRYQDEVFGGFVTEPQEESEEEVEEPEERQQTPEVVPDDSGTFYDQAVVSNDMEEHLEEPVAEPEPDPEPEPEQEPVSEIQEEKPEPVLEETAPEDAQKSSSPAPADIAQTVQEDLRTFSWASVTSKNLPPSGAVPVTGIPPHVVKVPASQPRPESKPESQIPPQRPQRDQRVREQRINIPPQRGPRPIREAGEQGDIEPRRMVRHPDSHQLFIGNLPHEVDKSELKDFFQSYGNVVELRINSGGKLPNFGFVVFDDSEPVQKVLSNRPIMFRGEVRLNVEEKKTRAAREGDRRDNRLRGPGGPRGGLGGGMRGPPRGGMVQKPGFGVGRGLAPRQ
# Method: RNA Bind-n-Seq
# Molecule type: RNA
# Medium: in vitro
# Concentration: 200 nM
# Setting: whole 134-nt RNA, ends assumed
# Together with: 150 mM KCl
# Relative to: input library
# Reading: higher = stronger binding
# Shared flanks, not repeated: GGGAGUUCUACAGUCCGACGAUC … UGGAAUUCUCGGGUGUCAAGG
Oligonucleotide,log2 enrichment
UCAAGUCCUGUGCUACACAUCGUAUGUACCGAAUCGGGCCGGGGCCGGGCCGGGAAAGUAUUAUGUUACGCCGUUCGGAUCUGCACUUCC,0.169
CUCAAGUCCUGUGCUACACAUCGUAUGUACCGAAUCGGGUUGGGGUUGGUUGGAAAGUAUUAUGUUACGCCGUUCGGAUCUGCACUUCCA,0.243
AGUCCUGUGCUACACAUCGUAUGUACCGAAUCGGGAAAAGGGAAAAGGGAAAAGGGGAAAGUAUUAUGUUACGCCGUUCGGAUCUGCACU,0.326
ACCAUGCAGGUGGGCAUCUUUGGGAAGUGGGGCAAGGGGGCGAUAGGGAGGGGGGUAACACUUUGGGAACAGGUGGUCCCAGGUCGUUUC,1.16
CCUGUGCUACACAUCGUAUGUACCGAAUCGGGGAAAGGGGAAAAAGGGGUUUUUUUGGGGAAAGUAUUAUGUUACGCCGUUCGGAUCUGC,0.29
UGCCUGGCCCAGUGCUGGGUUUGCCUUGUUGACGAUGCGCUUGGAUUGUUAAGGACACCGAUGUUCAGAACCCGGGAAGAGUCAUCUUAA,-1.79
CUGUGCUACACAUCGUAUGUACCGAAUCGGGGAAAAAAAGGGGAAAGGGGUUUUUUUGGGGAAAGUAUUAUGUUACGCCGUUCGGAUCUG,-0.0523
UGGGAGGUGGAUUUUGUUUAUUUUUUUAGCUCAUUUCCAGGGGUGGGAAUUUUUUUUUAAUAUGUGUCAUGAAUAAAGUUGUUUUUAAAA,0.225

# Sample 2
# Target: FOSB, bZIP domain (human)
# Method: DHFR protein complementation
# Medium: yeast
# Setting: single substitutions, most at no-binding floor
# Relative to: wild-type JUN-FOS pair
# Reading: higher = stronger binding
# Parent: JUN, bZIP domain (human); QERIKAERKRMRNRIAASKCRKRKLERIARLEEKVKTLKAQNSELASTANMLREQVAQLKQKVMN; partner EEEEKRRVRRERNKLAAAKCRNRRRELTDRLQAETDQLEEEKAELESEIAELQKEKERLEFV
Change,binding fitness [natural log]
K39M,-0.573
A29V,-0.415
K39I,-0.567
A57N,-0.134
L31K,-0.646
V35R,-0.195
S47R,0.027
Q55A,0.00273

# Further values, each from its own experiment
# P1: viral docking peptide; YKVKRRLVFGADD; partner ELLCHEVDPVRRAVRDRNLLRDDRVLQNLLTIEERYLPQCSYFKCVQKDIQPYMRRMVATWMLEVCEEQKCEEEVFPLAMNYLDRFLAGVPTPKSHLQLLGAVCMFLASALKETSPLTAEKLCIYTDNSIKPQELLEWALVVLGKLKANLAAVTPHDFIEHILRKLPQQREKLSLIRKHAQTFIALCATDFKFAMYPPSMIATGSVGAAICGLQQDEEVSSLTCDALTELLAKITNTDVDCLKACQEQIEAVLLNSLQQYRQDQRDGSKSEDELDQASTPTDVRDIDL
Substance,target,test,system,setting,how to read,quantity,value
P1 R5S,"CCND2, cyclin fold, Cln2 fusion (human)","yeast growth competition, sequencing",yeast,strong parent motif,"relative to: not given, higher = stronger binding",normalised enrichment score,0.0442
LLDDGWAGE,"HLA class I histocompatibility antigen, A alpha chain, allele A*25:01 (Homo sapiens, UniProt P04439)",peptide-MHC binding,peptide,concentration not given,,binding,inactive

# A few entries again (sample 2):
Change,binding fitness [natural log]
A29V,-0.415
K39I,-0.567
A57N,-0.134
